Results from different studies.
Lines come from different studies, so protocols differ. ± gives the spread as reported.
Albumin: Albumin (Mus musculus, UniProt P07724)
Sequence of UniProt P07724 (whole entry, looked up): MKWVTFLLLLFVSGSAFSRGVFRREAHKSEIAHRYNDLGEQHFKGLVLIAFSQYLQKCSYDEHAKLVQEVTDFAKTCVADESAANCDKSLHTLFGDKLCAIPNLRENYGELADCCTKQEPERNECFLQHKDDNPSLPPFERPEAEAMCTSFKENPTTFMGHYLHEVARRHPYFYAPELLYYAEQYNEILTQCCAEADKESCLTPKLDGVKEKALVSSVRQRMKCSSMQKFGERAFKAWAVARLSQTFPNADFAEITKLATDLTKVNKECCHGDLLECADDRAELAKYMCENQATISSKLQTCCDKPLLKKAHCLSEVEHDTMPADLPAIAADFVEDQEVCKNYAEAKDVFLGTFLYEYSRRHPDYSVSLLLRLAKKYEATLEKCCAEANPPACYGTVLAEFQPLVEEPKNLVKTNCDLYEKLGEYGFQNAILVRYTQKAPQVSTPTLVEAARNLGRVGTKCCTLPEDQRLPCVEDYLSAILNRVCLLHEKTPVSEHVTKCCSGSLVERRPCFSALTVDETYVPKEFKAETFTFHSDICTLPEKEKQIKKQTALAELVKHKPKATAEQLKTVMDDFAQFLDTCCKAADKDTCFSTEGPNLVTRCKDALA
TDP1: Tyrosyl-DNA phosphodiesterase 1 (TDP1, Homo sapiens, UniProt Q9NUW8)
Sequence of UniProt Q9NUW8 (whole entry, looked up): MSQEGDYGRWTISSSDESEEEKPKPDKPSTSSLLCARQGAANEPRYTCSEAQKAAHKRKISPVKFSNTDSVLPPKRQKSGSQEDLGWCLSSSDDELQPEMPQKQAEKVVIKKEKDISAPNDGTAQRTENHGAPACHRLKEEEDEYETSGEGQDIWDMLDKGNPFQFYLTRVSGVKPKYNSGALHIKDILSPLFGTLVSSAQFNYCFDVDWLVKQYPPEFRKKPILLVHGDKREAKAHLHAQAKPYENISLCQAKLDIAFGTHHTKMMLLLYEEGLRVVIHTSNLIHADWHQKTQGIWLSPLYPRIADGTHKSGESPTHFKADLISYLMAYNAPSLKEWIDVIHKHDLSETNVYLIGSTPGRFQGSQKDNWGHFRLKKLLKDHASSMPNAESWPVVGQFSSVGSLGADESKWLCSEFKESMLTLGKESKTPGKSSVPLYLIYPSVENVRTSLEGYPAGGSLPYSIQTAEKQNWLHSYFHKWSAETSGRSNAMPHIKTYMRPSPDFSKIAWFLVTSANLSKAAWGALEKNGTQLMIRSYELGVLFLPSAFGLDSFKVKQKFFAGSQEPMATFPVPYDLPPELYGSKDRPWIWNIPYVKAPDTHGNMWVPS
CYP2C9: Cytochrome P450 2C9 (CYP2C9, Homo sapiens, UniProt P11712)
Sequence of UniProt P11712 (whole entry, looked up): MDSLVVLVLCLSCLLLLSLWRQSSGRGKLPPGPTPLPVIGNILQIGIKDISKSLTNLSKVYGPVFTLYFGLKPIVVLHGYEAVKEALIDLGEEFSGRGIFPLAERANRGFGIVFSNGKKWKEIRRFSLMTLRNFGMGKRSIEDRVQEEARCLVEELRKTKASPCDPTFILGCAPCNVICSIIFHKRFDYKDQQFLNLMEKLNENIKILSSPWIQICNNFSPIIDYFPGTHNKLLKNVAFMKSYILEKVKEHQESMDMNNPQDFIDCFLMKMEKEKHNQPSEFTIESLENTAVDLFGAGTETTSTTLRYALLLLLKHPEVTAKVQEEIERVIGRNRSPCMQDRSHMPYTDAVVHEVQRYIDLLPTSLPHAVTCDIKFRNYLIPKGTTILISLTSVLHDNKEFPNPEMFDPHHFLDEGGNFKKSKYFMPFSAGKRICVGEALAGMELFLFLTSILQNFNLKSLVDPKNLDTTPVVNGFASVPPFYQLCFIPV
CYP2C19: Cytochrome P450 2C19 (CYP2C19, Homo sapiens, UniProt P33261)
Sequence of UniProt P33261 (whole entry, looked up): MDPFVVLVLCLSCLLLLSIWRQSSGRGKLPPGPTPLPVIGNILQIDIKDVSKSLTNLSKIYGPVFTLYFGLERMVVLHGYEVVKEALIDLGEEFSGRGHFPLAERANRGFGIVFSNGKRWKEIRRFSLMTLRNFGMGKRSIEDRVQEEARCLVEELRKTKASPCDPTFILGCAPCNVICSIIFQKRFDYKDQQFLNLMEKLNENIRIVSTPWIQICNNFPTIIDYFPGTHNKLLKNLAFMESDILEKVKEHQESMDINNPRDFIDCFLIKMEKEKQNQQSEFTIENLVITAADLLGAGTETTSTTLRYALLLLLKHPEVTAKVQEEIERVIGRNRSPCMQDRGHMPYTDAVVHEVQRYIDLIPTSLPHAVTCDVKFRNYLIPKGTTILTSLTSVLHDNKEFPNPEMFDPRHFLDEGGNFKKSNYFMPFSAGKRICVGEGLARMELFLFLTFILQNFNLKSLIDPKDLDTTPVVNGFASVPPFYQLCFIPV
Sequence of UniProt P22310 (whole entry, looked up): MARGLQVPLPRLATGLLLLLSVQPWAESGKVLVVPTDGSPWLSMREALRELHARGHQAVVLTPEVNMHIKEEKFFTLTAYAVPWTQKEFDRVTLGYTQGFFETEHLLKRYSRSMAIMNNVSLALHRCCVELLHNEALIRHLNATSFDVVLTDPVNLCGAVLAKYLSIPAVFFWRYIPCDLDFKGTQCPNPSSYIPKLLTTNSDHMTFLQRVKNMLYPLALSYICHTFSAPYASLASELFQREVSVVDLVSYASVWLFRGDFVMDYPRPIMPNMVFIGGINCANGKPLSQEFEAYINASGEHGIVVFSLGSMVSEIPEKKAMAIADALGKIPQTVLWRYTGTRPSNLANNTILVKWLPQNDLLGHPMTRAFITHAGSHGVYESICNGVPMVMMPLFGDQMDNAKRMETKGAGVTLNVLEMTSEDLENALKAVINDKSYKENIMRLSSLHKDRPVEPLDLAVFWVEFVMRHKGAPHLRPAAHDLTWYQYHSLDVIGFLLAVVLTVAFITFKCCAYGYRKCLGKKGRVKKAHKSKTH
Sequence of UniProt P10635 (whole entry, looked up): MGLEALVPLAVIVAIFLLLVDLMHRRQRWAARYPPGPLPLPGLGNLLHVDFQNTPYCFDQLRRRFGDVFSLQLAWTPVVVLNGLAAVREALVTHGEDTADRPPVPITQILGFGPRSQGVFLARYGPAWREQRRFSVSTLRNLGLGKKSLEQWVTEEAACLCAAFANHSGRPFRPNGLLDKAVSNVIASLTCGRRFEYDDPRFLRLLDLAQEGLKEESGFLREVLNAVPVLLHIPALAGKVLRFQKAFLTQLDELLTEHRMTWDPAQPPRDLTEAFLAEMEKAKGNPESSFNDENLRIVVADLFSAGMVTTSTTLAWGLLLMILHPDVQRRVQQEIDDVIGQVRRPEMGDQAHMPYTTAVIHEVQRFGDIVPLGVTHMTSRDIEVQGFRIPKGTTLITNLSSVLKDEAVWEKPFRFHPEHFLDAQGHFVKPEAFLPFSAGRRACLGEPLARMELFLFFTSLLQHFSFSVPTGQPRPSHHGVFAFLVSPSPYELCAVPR

SMILES = O=c1c(-c2ccccc2)c[nH]n1-c1ccccn1; target = iron(II); system = aqueous solution; conditions = pH above 3, iron:ligand 1:3 complex; quantity = log stability constant; value = ~21
SMILES = CN1CCN(c2ccc3[nH]c(-c4ccc5[nH]c(-c6ccc(OCCCCNC(=O)c7cccc8c7C(=O)OC87c8ccc(N(C)C)cc8[Si](C)(C)c8cc(N(C)C)ccc87)cc6)nc5c4)nc3c2)CC1; target = Albumin; system = PBS; conditions = 1 µM, 1 h, together with: 25 mg/mL albumin; quantity = fluorescence quantum yield; value = 0.001 ± 0.004
SMILES = Cn1c2ccccc2n2c(C=NOCc3ccc4nc(-c5ccccc5)c(Nc5ccc(C(=O)O)cc5)n4c3)c(-c3ccccc3)nc12; target = TDP1; assay = enzyme activity, inhibitor; conditions = 100 µM, unpurified compound; quantity = inhibition; value = 106%
SMILES = C=C(NC(=O)c1csc(-c2nc3c(cc2O)-c2nc(cs2)C(=O)NC(C(C)O)C(=O)NC(=C(C)OC)c2nc(cs2)C(=O)NC2c4nc(cs4)C(=O)NC(COC(=O)c4c5c6c(cccc6n4O)COC(=O)C(OC4CC(C)(O)C(N(C)C)C(C)O4)C2OC5)c2nc-3cs2)n1)C(N)=O (stereo not drawn); target = CYP2B6; assay = induction, refers to: CYP2B6 mRNA; system = primary human hepatocytes; conditions = NG, 3 days, 0.1% DMSO; scale = relative to: vehicle; quantity = mRNA level; value = < 4 fold
SMILES = CN(CC(F)(F)F)C(=O)CN1CN(c2ccccc2)C2(CCN(C(=O)c3ccc4[nH]ncc4c3)CC2)C1=O; target = CYP2C9; assay = enzyme activity, inhibitor; quantity = IC50; value = 2600 nM
SMILES = CNC(=O)C1CCCN(C(=O)C2CC3CCC2N3C(=O)[C@@H]2C[C@@H](O)CN2C(=O)NCc2cccc(Cl)c2F)C1 (mixture of isomers); target = Cytochrome P450 2D6 (CYP2D6, Homo sapiens, UniProt P10635); assay = enzyme activity, inhibitor, time-dependent inhibition; conditions = 0.0686 µM, preincubated with NADPH; quantity = dextrorphan formation; value = 111 ng/mL
SMILES = C=CC(=O)Nc1cc(Nc2nccc(-c3cn(C)c4ccccc34)n2)c(OCC(F)(F)F)nc1N(C)CCN(C)C; target = CYP2C9; assay = substrate; conditions = 3 µM, 60 min, 2C9 isoform, liver abundance-normalized; quantity = contribution to substrate depletion; value = 7.92%
SMILES = COC1C(c2ccc(Cl)c(Cc3ccc(OC4CCOC4)cc3)c2)OC(CO)C(O)C1O (stereo not drawn); target = CYP2C19; assay = enzyme activity, inhibitor; system = human, liver microsomes; conditions = 10 µM, 10 min; quantity = inhibition; value = 34.5%
SMILES = CN1CCN(c2ccc3[nH]c(-c4ccc5[nH]c(-c6ccc(OCCCCNC(=O)c7ccc8c(c7)C(=O)OC87c8ccc(N(C)C)cc8C(C)(C)c8cc(N(C)C)ccc87)cc6)nc5c4)nc3c2)CC1; target = Albumin; assay = binding, fluorescence titration; system = PBS; conditions = 1 h; quantity = Kd; value = 14000 ± 4000 nM
SMILES = O=C(CN1CN(c2ccc(Cl)c(Cl)c2)C2(CCN(C(=O)c3ccc4[nH]ncc4c3)CC2)C1=O)NCC(F)(F)F; target = CYP2C9; assay = enzyme activity, inhibitor; quantity = IC50; value = 600 nM
SMILES = C=CC(=O)Nc1cc(Nc2nccc(-c3cn(C)c4ccccc34)n2)c(OCC(F)(F)F)nc1N(C)CCNC; target = CYP2C19; assay = substrate; conditions = 3 µM, 60 min, 2C19 isoform, liver abundance-normalized; quantity = contribution to metabolite formation; value = 0.27%
SMILES = CN1CCN(c2ccc3[nH]c(-c4ccc5[nH]c(-c6ccc(OCCCCNC(=O)c7ccc8c(c7)C(=O)OC87c8ccc(N(C)C)cc8[Si](C)(C)c8cc(N(C)C)ccc87)cc6)nc5c4)nc3c2)CC1; target = Albumin; system = PBS; conditions = 1 µM, 1 h, together with: 25 mg/mL albumin; quantity = fluorescence quantum yield; value = 0.014 ± 0.005
SMILES = O=C(O)c1ccc(Nc2c(-c3ccccc3)nc3ccc(CON=Cc4ccc(=O)n(Cc5ccc(Cl)c(Cl)c5)c4)cn23)cc1; target = TDP1; assay = enzyme activity, inhibitor; conditions = 100 µM, unpurified compound; quantity = inhibition; value = 41.6%
SMILES = CCCCN1C(=O)c2cccc3c(N4CCN(C)CC4)ccc(c23)C1=O; target = UDP-glucuronosyltransferase 1A4 (UGT1A4, Homo sapiens, UniProt P22310); assay = N-glucuronidation, substrate, relative activity factor; system = human, recombinant UGT, liver microsomes; quantity = contribution to metabolism; value = 98.7%
SMILES = CN1CCN(c2ccc3[nH]c(-c4ccc5[nH]c(-c6ccc(OCCCCNC(=O)c7cccc8c7C(=O)OC87c8ccc(N(C)C)cc8C(C)(C)c8cc(N(C)C)ccc87)cc6)nc5c4)nc3c2)CC1; target = Albumin; system = PBS; conditions = 1 µM, 1 h, together with: 25 mg/mL albumin; quantity = fluorescence quantum yield; value = 0.02 ± 0.003
